Measurements gathered from unrelated publications.
Each line is one published result; not all experiments were run side by side. Values joined by “and” are separate records of one study, mostly repeats; a detail may differ. Numbers after ± are the reported error.

| Molecule | cell line | assay | system | setting | scale | endpoint | value |
| --- | --- | --- | --- | --- | --- | --- | --- |
| O=C(CSc1nnc(-c2ccc(NC(=O)c3cccnc3)cc2)o1)Nc1cccc(Br)c1 | RAW264.7 | IL-6 release, inhibitor, ELISA | – | LPS-stimulated | – | IC50 | 1.93 µM |
| Nc1ccccc1C#Cc1cc(F)cc(F)c1 | RAW264.7 | sulforhodamine B | – | 50 µM, 20 h | reference: vehicle | viability | 30.8 ± 0.6% |
| Cc1cn(-c2cc(NC(=O)c3ccc(C)c(Nc4nccc(-c5cccnc5)n4)c3)cc(C(F)(F)F)c2)cn1 | K562 K562-WT | – | – | 48 h | – | GI50 | ~0.00071 µM |
| CNC(=O)c1ccc(N2C(=S)N(c3cnc(C#N)c(C(F)(F)F)c3)C(=O)C23CCC3)cc1F | LNCaP | PSA expression, antagonist | – | 1 day, charcoal-stripped serum 3 days, with: 1 nM DHT | – | Ki | 0.0384 µM |
| CC(C)=CCn1c(-c2ccccc2)cc2ccccc21 | RAW264.7 | sulforhodamine B | – | 50 µM, 20 h | reference: vehicle | viability | 75.6 ± 4.7% |
| COc1ccc(N(C)c2nc(C)nc3[nH]ccc23)cc1 | SK-OV-3 MDR-1-6/6 P-gp overexpressing | SRB | – | – | reference: SK-OV-3 parental over | relative resistance | 1.2 |
| COc1cccc(-c2ccnc3nc(Nc4ccc(S(N)(=O)=O)cc4)nn23)c1 | HD-MB03 and Daoy medulloblastoma | cell viability, resazurin | – | 10 µM, 72 h, hypoxia | reference: untreated | viability decrease | 50 to 60% |
| Nc1nc2ccccc2cc1-c1ccccc1F | mouse fibroblasts | Western blot | conditioned medium | 500 nM, 24 h, unit not given | reference: Col1A1 | secreted Par-4 level | 82.1 ± 21.2 |
| NS(=O)(=O)c1ccc(Nc2nc3nccc(-c4ccccc4Cl)n3n2)cc1 | HD-MB03 and Daoy medulloblastoma | cell viability, resazurin | – | 10 µM, 72 h, hypoxia | reference: untreated | viability decrease | 20 to 35% |
| CN(C)c1ccc2cc(-c3ccccc3F)c(=O)[nH]c2c1 | mouse fibroblasts | Western blot | conditioned medium | 500 nM, 24 h, unit not given | reference: Col1A1 | secreted Par-4 level | 33.2 ± 0.9 |
| CCn1cc(-c2cc(Cn3ccnc3)cc3c2CCN([C@@H](C)c2cc(OC)ccn2)C3=O)c(C(F)(F)F)n1 | MOLM-13 | cell growth or viability, ATP luminescence | – | 5 days | – | GI50 | 0.019 µM |
| NC1(C(=O)O)CC2CCC1C2 (centres unmarked) | IDO-transduced EG7 | tryptophan uptake | – | sodium-free, uptake 3 min, with: 3H-L-tryptophan | – | Ki | 80 µM |
| CC(C)Oc1ccc(C(=O)Cn2ccnc2)cc1-n1c(CN2CCN(C(=O)COc3ccc(Cl)cc3)CC2)nc2ccccc2c1=O | SU-DHL-6 | RT-qPCR, measured: lipid metabolism genes | – | 500 nM | – | mRNA level | increased |
| CN(C)c1ccc2cc(-c3ccccc3F)c(=S)[nH]c2c1 | mouse fibroblasts | Western blot | conditioned medium | 500 nM, 24 h, unit not given | reference: Col1A1 | secreted Par-4 level | 51.7 ± 4.9 |
| NNC(=O)Cn1cc(COc2ccccc2-c2nc(-c3ccccc3)no2)nn1 | Caco-2 | qPCR, measured: TP53 | – | concentration not given, 24 h | reference: untreated | mRNA level | 5.13 fold |
| COc1ccccc1-c1ccnc2nc(Nc3ccc(S(N)(=O)=O)cc3)nn12 | HD-MB03 and Daoy medulloblastoma | cell viability, resazurin | – | 10 µM, 72 h, hypoxia | reference: untreated | viability decrease | 20 to 35% |
| O=C1Nc2ccccc2/C1=N/N=Cc1ccc(OCc2ccccc2)cc1 | SH-SY5Y | neuroprotection, MTT | – | 1.5 µg/mL, 24 h, with: rotenone 10 µM | – | viability | ~50% |
| CN(C)c1ccc2cc(-c3cccc(F)c3)c(N)nc2c1 | mouse fibroblasts | Western blot | conditioned medium | 500 nM, 24 h, unit not given | reference: Col1A1 | secreted Par-4 level | 66.8 ± 10.9 |
| CC(C)(C)OC(=O)Nc1cccc(-c2cc(C(=O)NCCc3cc(C(=O)NO)no3)no2)c1 | BXPC-3 | cell growth or viability, MTS | – | 72 h | – | GI50 | > 50 µM |
| CC1(CCCNCC(c2ccccc2)c2ccccc2)CCc2cc(O)ccc2O1 (centres unmarked) | TNBC cells | qRT-PCR | – | 15.6 µM | reference: DMSO | Bcl-2 mRNA level | decreased |
| N.N.O=C([O-])C1(C(=O)[O-])CCC1.[Pt+2] | OV-90 | – | platinum resistant | 59.0 µM, 72 h | – | decrease of cell viability | ~30% |
| c1ccc2[nH]c(-c3ccsc3)cc2c1 | RAW264.7 | sulforhodamine B | – | 50 µM, 20 h | reference: vehicle | viability | 90.6 ± 2.6% |
| O=C1OC2(c3cc(I)c(O)c(I)c3Oc3c2cc(I)c(O)c3I)c2c(Cl)c(Cl)c(Cl)c(Cl)c21 | red blood cells | bright-field and fluorescence microscopy | – | concentration not given, irradiation beyond lysis | – | ghost morphology | no effect |
| CC(C)(C)OC(=O)Nc1ccc(-c2cc(C(=O)NCc3ccc(C(=O)NO)cc3)no2)cc1 | BXPC-3 | cell growth or viability, MTS | – | 72 h | – | GI50 | 8 µM |

| Molecule | cell line | assay | system | setting | scale | endpoint | value |
| --- | --- | --- | --- | --- | --- | --- | --- |
| CO[C@@H]1[C@H](O)[C@@H](COP(=O)(O)OP(=O)([O-])OP(=O)(O)OP(=O)(O)OC[C@H]2O[C@@H](n3cnc4c(=O)[nH]c(N)nc43)[C@H](O)[C@@H]2O)O[C@H]1n1c[n+](C)c2c(O)nc(N)nc21 | human immature dendritic cells | reporter gene | – | cap on electroporated luciferase mRNA | reference: beta-S-ARCA D1 capped mRNA | relative translation efficiency | 1.25 ± 0.15 |
| COc1cccc2c1C(=O)c1c(O)c3c(c(O)c1C2=O)C[C@@](O)(C(=O)CO)C[C@@H]3O[C@H]1C[C@H](N)[C@H](O)[C@H](C)O1 | Caco-2 | qPCR, measured: mTOR | – | IC50, 24 h | reference: untreated | mRNA level | 0.16 ± 0.002 fold |
| O=C(CCc1cc(C(=O)NO)no1)Nc1nc(-c2ccccc2)cs1 | BXPC-3 | cell growth or viability, MTS | – | 72 h | – | GI50 | 2.3 µM |
| C(=NOCc1ccccc1)c1c(-c2ccccc2)[nH]c2ccccc12 | RAW264.7 | sulforhodamine B | – | 50 µM, 20 h | reference: vehicle | viability | 59.2 ± 7.7% |
| O=[N+]([O-])C(Br)=Cc1ccc(Br)o1 | KB | – | – | mean of three Leishmania species | reference: KB CC50 over Leishmania IC50 | selectivity index | 14.1 |
| N=C(N)Nc1ccc(OC(=O)c2ccc(NC(=N)N)cc2)cc1 | Huntington disease fibroblasts | ATP2A1 splicing rescue | – | 48 h | – | minimal effective concentration | 100 to 300 µM |
| COc1cccc(-c2cc3ccccc3[nH]2)c1 | RAW264.7 | sulforhodamine B | – | 50 µM, 20 h | reference: vehicle | viability | 92.8 ± 6.4% |
| NC(=O)Cn1cc(COc2ccccc2-c2nc(-c3ccccc3)no2)nn1 | A549 | qPCR, measured: EGFR | – | IC50, 24 h | reference: untreated cancer cells | mRNA level | 0.25 ± 0.007 fold |
| N#Cc1c(-c2ccccc2)[nH]c2ccccc12 | RAW264.7 | sulforhodamine B | – | 50 µM, 20 h | reference: vehicle | viability | 82.1 ± 4.1% |
| CCn1c(=O)c(-c2cc(NC(=O)Nc3ccccc3)c(F)cc2Br)cc2cnc(NC)cc21 | HMC1 (KIT wild-type) | cell growth | – | – | – | GI50 | 0.26 µM |
| Clc1cccc(Cl)c1N=C1NCCN1 | TR-BBB | uptake | – | with: [3H]imperatorin | – | Ki | 1100 µM and 1000 µM |
| Cc1ccc(NC(=O)CSc2nnc(-c3ccc(NC(=O)c4cccnc4)cc3)n2N)cc1 | RAW264.7 | NO release, inhibitor, Griess | – | LPS-stimulated | – | IC50 | 2.6 µM |
| CN(C)c1ccc2cc(-c3c(Cl)cccc3Cl)c(N)nc2c1 | mouse fibroblasts | Western blot | conditioned medium | 500 nM, 24 h, unit not given | reference: Col1A1 | secreted Par-4 level | 123 ± 1.6 |
| C[C@H](NC(=O)[C@H](CC(=O)NCC(C)(C)C)NC(=O)c1ccc(C(=O)NO)cc1)C(=O)NCc1ccccc1 | HL-60, SEM and SUP-B15r | chymotrypsin-like activity, inhibitor | – | 4 nM to 25 µM, 2 h | – | proteasome activity | inhibited |
| CC[C@@H]1[C@H](F)C(=O)N[C@@H]1COc1nccc2cc(C(N)=O)c(OC)cc12 | human plasmacytoid dendritic cells | – | – | 200 nM, 24 h, with: SLE neutrophil supernatants | – | IFN-alpha release | 5.7 ± 2.5 pg/mL |
| COC1C(O)[C@@H](COP(=O)(O)OP(=O)([S-])OP(=O)(O)OP(=O)(O)OC[C@H]2O[C@@H](n3cnc4c(=O)[nH]c(N)nc43)C(O)C2O)O[C@H]1n1c[n+](C)c2c(O)nc(N)nc21 (mixture of isomers) | human immature dendritic cells | reporter gene | – | cap on electroporated luciferase mRNA | reference: beta-S-ARCA D1 capped mRNA | relative translation efficiency | 0.53 ± 0.17 |
| CCCCC[C@H](CC(=O)NO)C(=O)N[C@H](C(=O)N1CCC[C@H]1CO)C(C)C | U-937 | cell proliferation | – | 13 µM, day 4, with: MK-571 10 µM | – | inhibition | 82.1 ± 3.4% |
| Nc1ccc(-c2cc3ccccc3[nH]2)cc1 | RAW264.7 | sulforhodamine B | – | 50 µM, 20 h | reference: vehicle | viability | 58.7 ± 2.9% |
| N=C(N)NCCC[C@H](NC(=O)[C@@H]1CSSC[C@H](NC(=O)[C@H](Cc2ccc3ccccc3c2)NC(=O)[C@H](CCCNC(=N)N)NC(=O)[C@H](CCCNC(=N)N)NC(=O)CN2CCN(CC(=O)O)CCN(CC(=O)O)CC2)C(=O)N[C@@H](Cc2ccc(O)cc2)C(=O)N[C@@H](CCCNC(N)=O)C(=O)N[C@@H](CCCCN)C(=O)N[C@H](CCCCN)C(=O)N2CCC[C@H]2C(=O)N[C@@H](Cc2ccc(O)cc2)C(=O)N[C@@H](CCCNC(=N)N)C(=O)N[C@@H](CCCNC(N)=O)C(=O)N1)C(N)=O [fluorine-18 labelled] | CHO expressing CXCR4 | – | – | 2 h, 37 °C | reference: added radioactivity | cell uptake | 44.5 ± 2.41% |
| Cc1ccc(-c2cc3ccccc3[nH]2)cc1 | RAW264.7 | sulforhodamine B | – | 50 µM, 20 h | reference: vehicle | viability | 57.9 ± 9.5% |
| CNCCCN1c2ccccc2CCc2ccccc21 | hiPSC-derived cardiomyocytes | – | – | 3 µM, 72 h, 24 h pretreatment, with: doxorubicin 10 µM | reference: doxorubicin alone | cell viability | 2.5 fold |
| O=C(Cn1cc(COc2ccccc2-c2nc(Cc3ccccc3)no2)nn1)NNC(=S)Nc1ccccc1 | Caco-2 | qPCR, measured: mTOR | – | IC50, 24 h | reference: untreated cancer cells | mRNA level | 0.365 ± 0.01 fold |
| fMLF analogue | rabbit polymorphonuclear leukocytes | – | – | 2 x 10 to 8 M, 30 min uptake, 37 °C | – | release half-life | 3.5 min |

For quick reference, copied from above:
| Molecule | cell line | assay | system | setting | scale | endpoint | value |
| --- | --- | --- | --- | --- | --- | --- | --- |
| CN(C)c1ccc2cc(-c3cccc(F)c3)c(N)nc2c1 | mouse fibroblasts | Western blot | conditioned medium | 500 nM, 24 h, unit not given | reference: Col1A1 | secreted Par-4 level | 66.8 ± 10.9 |
| CC(C)(C)OC(=O)Nc1cccc(-c2cc(C(=O)NCCc3cc(C(=O)NO)no3)no2)c1 | BXPC-3 | cell growth or viability, MTS | – | 72 h | – | GI50 | > 50 µM |
| CC1(CCCNCC(c2ccccc2)c2ccccc2)CCc2cc(O)ccc2O1 (centres unmarked) | TNBC cells | qRT-PCR | – | 15.6 µM | reference: DMSO | Bcl-2 mRNA level | decreased |
